Assay results from different studies.
Numbered parts are unrelated; each lists some results of a single study. Positions count from the first letter of the parent shown.

Series 1
Target: RNA binding protein fox-1 homolog 2, RRM domain, GST-SBP tag (RBFOX2, Homo sapiens, UniProt O43251-10, residues 100-194)
Technique: RNA Bind-n-Seq
Molecule type: RNA
Medium: in vitro
Tested at: 365 nM
Notes: natural RNA segment, single round, ends assumed
Reference: no-protein control
Reading: higher = stronger binding
All sequences stand within: GGGAGUUCUACAGUCCGACGAUC … UGGAAUUCUCGGGUGCCAA
Residues (chain): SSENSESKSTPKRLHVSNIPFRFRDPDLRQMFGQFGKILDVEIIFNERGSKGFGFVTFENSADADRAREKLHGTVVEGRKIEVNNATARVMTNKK
| Sequence | RBNS enrichment (R) |
| --- | --- |
| AAGUGCACUGCAAGGCCAGAAAAUUUUACAAUCUUCUUUCUUUUAUGUUCUGUAGUGUGUUUACCCUCAUUAUGAAGCAAAUUAGCAAUGCAUUGAUUAAUGUUCACUUA | 0.209 |
| UCAUUACCCAUUGGGAAACACAAUGGCUACUUCUGUUAGGGUACAUUGACCUUGGUCAAGCAUCUUAAAGAAGGCAACCCUAAUUGAGAGCUGUCUUGGCUAAUACUCUG | 0.268 |
| UUCUGACUUUUUAAAUCAUCAUCAUUAUUUUUAAUUAAAAAAAAAUGCCUGUAUGCCUUUUUCUGGUCCAAUUGUAAAUAAAAUGCCAUUGUCCUGUUGUCUCAACUCGA | 0.663 |
| UUUAAGAAUGCUCAGAAGAAAUUGAUAAUCUGUGUGAAUAUGUUUUAGAUGUUUAUAUACCUUUUGAAGAGACCCAGUAGCCCAUAGCACAAAUCUUGUGGAAAUCCGAU | 10.2 |
| UACUUUGAGUGGAAUGUUCAUUAAUGUAAAUUGUAUUUAUUUUUAUACUUUUAUUUUCACUAGUUUUGCUUCUAGGCAAAAAGCAAAAUAAACUUUUCAUCUUAAAGAAA | 0.568 |
| CCGUCCUUUCCAAUACGAUUUUCUGUUGCACCUUGUAGUGGAUUCUGCAUAUCAUCUUUCCCACCUAAAAAUGUCUGAAUGCUUACACAAAUAAAUUUUAUAACACGCUU | 1.18 |
| GCAGAAUGCCACACCUGCAAGUUGAUUAGAACUGCCUUUCUUCCCAGGCUUGACAUAGGUAUUAAGUCAAAAUUACAUGAAACCCAGUGGUAAAAAAGCCUCUGAAAGCU | 0.48 |
| CACUCACCCCUUCUAAUCCUGAAGGGAAGCCCAUUCUAAACUCCUUUCCUGCAAACCCAUUUCCAGCUCCUAGUAGCUUUCCUCCCAAAGGCUUUCUUUCCAAUCCUUUA | 0.775 |

Series 2
Target: Interferon regulatory factor 7, full length, phosphomimetic (IRF7, Homo sapiens, UniProt Q92985, residues 1-503, S101K/S471D/S472D/S475D/S476D/S477D/S483D/S484D/S487D)
Technique: protein-binding microarray
Molecule type: double-stranded DNA, one strand shown
Medium: in vitro
Tested at: 250 nM
Notes: 60-bp whole probe
With: salmon DNA 0.4 mg/ml
Reference: random background probes
Reading: higher = stronger binding
All sequences stand within: GCCTAGCAC … GTCTTGATTCGCTTGACGCTGCTG
Target sequence (chain): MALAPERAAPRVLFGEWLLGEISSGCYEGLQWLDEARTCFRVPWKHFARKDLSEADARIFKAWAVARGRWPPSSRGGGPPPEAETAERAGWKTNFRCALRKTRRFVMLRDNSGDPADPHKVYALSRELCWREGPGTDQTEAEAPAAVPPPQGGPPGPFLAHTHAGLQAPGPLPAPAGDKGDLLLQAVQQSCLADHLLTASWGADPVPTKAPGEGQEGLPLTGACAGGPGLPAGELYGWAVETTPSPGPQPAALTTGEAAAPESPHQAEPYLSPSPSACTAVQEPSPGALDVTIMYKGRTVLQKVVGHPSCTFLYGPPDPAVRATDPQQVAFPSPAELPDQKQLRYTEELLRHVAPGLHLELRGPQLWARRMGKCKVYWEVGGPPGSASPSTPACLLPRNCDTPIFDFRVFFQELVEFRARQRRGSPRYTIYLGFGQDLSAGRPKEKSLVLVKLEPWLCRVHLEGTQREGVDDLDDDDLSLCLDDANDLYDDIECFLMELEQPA
| Sequence | log fluorescence [z-score] |
| --- | --- |
| TTAGGTTCCCTTTTCCTATAGTGCTAG | 4.56 |
| TCATATGCCGACTTTGGAACTGTGCTA | 0.468 |
| GATGGTTTCCTTTTCCTGACGTGCTAG | 7 |
| GATGAACTGAGTTTCGAGACGTGCTAG | 3.32 |
| TTAGATATCGGGTATCGAGTAGTGCTA | 0.427 |
| TGAGGTTTCCTACTGCTTTAGTGCTAG | 0.641 |
| TCACTTCTAATATTCATACTGTGCTAG | 1.02 |
| TTAGGTATCGGACTGGGTTGGTGCTAG | 0.142 |
| GACGGTCTCCTTACCCTGACGTGCTAG | 0.0982 |
| TTAGGTTTCCTACTGGTTTAGTGCTAG | 0.828 |
| GATGGACTGGGGACTGGGGACGTGCTA | -0.819 |
| TCATACCTGAATATCTTACTGTGCTAG | 0.359 |
| TTAGGACTGGTTTTCGGTTAGTGCTAG | 3.56 |
| TTAGATATTGGGTTTCGATTAGTGCTA | 6.43 |
| TCAATTTTGCTTCTAGAACTGTGCTAG | 0.285 |
| GACGGATCCCTTTTCCTGACGTGCTAG | 1.02 |
| GTAGGACTGCTTTTCCTTTAGTGCTAG | 0.728 |
| GCTTTTTCCCCCCTCACGCAGTGCTAG | 2.49 |
| TTAGATATCGGGTTTCGATTGGTGCTA | 8.39 |

Series 3
Target: ABI1, truncated, D143A, DHFR fusion (Arabidopsis thaliana)
Technique: DHFR PCA, deep sequencing
Medium: yeast
Notes: methotrexate growth selection, single substitutions
With: (+)-ABA 4.8 µM
Reference: wild-type fitted maximum
Reading: higher = stronger binding
Starting sequence: PYL1, truncated, DHFR fusion (Arabidopsis thaliana); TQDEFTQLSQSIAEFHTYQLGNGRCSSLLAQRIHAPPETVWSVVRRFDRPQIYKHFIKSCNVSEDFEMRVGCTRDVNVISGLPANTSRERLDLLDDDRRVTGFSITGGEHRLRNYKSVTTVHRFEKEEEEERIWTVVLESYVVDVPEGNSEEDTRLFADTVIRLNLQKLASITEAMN
| Substitution | relative binding score [%] |
| --- | --- |
| R45Y | -5.54 |
| E128M | 67 |
| R49C | 71.1 |
| L28R | 28 |
| Q2N | 69.9 |
| R46C | 49.1 |
| E67K | 70.4 |
| H122V | 4.21 |
| C25H | -2.78 |
| D48Y | 0.584 |
| T1W | 69.3 |
| R69V | 75.3 |

Series 4
Target: Sal-like protein 4, full length isoform B (SALL4, Homo sapiens, UniProt Q9UJQ4-2, residues 1-616)
Technique: universal PBM
Molecule type: double-stranded DNA, one strand shown
Medium: in vitro
Tested at: not given
Notes: 8-mer, flanks averaged, mean of replicates
Reading: higher = stronger binding
Target sequence (chain): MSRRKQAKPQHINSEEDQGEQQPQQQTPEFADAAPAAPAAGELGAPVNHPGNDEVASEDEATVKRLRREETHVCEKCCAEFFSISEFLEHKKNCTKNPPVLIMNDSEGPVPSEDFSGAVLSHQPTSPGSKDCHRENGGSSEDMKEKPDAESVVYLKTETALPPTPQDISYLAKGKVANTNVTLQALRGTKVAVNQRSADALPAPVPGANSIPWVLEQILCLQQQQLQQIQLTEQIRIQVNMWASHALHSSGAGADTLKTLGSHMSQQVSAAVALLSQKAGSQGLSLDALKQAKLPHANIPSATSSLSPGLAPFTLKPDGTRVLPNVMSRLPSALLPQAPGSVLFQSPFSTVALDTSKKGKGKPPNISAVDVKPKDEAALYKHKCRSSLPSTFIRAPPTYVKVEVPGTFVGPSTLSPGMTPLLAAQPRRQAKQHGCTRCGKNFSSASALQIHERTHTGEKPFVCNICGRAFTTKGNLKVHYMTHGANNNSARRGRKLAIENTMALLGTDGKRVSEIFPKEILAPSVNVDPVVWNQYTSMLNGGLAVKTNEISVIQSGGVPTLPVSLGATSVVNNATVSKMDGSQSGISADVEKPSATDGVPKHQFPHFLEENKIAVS
| Sequence | E-score |
| --- | --- |
| GTACTGAA | 0.114 |
| ATTGACGC | 0.0662 |
| AGGAGTCG | -0.195 |
| ACATACCG | -0.0536 |
| TGATGACA | -0.0614 |
| CCAATGAC | 0.0287 |
| AGCGCCTG | -0.277 |
| ATTCAGCG | -0.0941 |
| CTAGGATA | 0.122 |
| ATCGGACG | -0.11 |
| TCCAGGCA | 0.0759 |
| ACGTCGTC | -0.0358 |
| CCACATAA | 0.192 |
| AACTCACC | -0.118 |
| ACAGTAGA | 0.179 |
| ACGCATCT | -0.0467 |
| AAATTCTG | 0.181 |
| ATGCCCAG | -0.128 |
| AACAGCAG | 0.0514 |
| AAGGTGGC | -0.124 |
| TATGAAAA | 0.423 |
| CTGGGTGC | -0.4 |
| GGAGCAAC | -0.222 |
| CGTATGAA | 0.177 |
| AACATTGG | 0.0437 |

Series 5
Target: Histone acetyltransferase KAT6A, winged helix 1, GST fusion (KAT6A, Homo sapiens, UniProt Q92794, residues 1-85)
Technique: protein binding microarray
Molecule type: double-stranded DNA, one strand shown
Medium: in vitro
Tested at: not given
Notes: 8-mer, flanks averaged, mean of 2 arrays, mostly near background
Reference: not given
Reading: higher = stronger binding
Target sequence (chain): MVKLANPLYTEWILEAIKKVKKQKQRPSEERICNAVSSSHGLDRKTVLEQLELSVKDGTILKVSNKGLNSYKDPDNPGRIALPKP
| Sequence | E-score |
| --- | --- |
| ATCTCGCG | 0.113 |
| CACAATGC | 0.0588 |
| AAAACGAA | -0.175 |
| ACGTGTGG | -0.237 |
| ATCAGCTC | -0.162 |
| AGAGAAGA | -0.135 |
| ACAGCCGA | 0.0439 |
| GAAATACC | 0.0034 |
| ACATGCCG | 0.318 |
| AGTTCGGA | -0.00972 |
| AATGCAGA | -0.166 |
| AATCGAGT | -0.0739 |
| GCCGCATA | 0.311 |
| GTGGCGAA | -0.00383 |
| CTTCAGAC | -0.0664 |
| GCCGTTAC | 0.334 |
